Assay results gathered from unrelated publications.
Parts stem from different laboratories: compare values within a part only. Positions count from the first letter of the parent shown.

Block 1
Target: Sal-like protein 4, full length isoform B (SALL4, Homo sapiens, UniProt Q9UJQ4-2, residues 1-616)
Technique: universal PBM
Form: double-stranded DNA, one strand shown
Matrix: in vitro
Tested at: not given
Notes: 8-mer, flanks averaged, mean of replicates
Direction: higher = stronger binding
Measurement: E-score
ACAGCACG: -0.209
ACCTCGAC: -0.0149
ACCAGGTC: -0.221
GAACAGGC: -0.117
ACCGCACA: -0.217
ATCTGCTG: 0.0424
CACTAAGA: -0.0341
ATTTCGGC: 0.0665

Block 2
Target: ABI1, truncated, D143A, DHFR fusion (Arabidopsis thaliana)
Technique: DHFR PCA, deep sequencing
Matrix: yeast
Notes: methotrexate growth selection, single substitutions
With: (+)-ABA 0.0091 µM
Baseline: wild-type fitted maximum
Direction: higher = stronger binding
Measurement: relative binding score
Parent: PYL1, truncated, DHFR fusion (Arabidopsis thaliana); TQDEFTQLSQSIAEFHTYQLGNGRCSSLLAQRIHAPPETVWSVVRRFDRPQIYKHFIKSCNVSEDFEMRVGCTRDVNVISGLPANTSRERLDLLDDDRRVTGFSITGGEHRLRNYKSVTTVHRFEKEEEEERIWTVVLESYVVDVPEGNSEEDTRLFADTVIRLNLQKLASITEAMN
L91S: 1.56%
F47I: 2.4%
I133D: 52.1%
L8T: 3.06%
S11A: 56%
V136S: -3.68%

Block 3
Target: CCNA1, cyclin fold, Cln2 fusion (human)
Technique: yeast growth competition, sequencing
Matrix: yeast
Notes: weak parent motif
Baseline: not given
Direction: higher = stronger binding
Measurement: normalised enrichment score
Parent: INSM1 docking peptide (human); PKAIRKLHFEDEV
E10L: 0.128
R5I: -0.154
E12Q: 0.501
K2G: 0.403
E12K: 0.696
I4D: -0.139
I4T: 0.526
K2E: 0.282

Further values, each from its own experiment
PhoQ, residues 284 288 289 292 302 303 NLGVHL  fold induction (PhoP, residues 12 14 15 18 19 LWHVM (Escherichia coli, UniProt P23836); Sort-seq, measured: YFP reporter; E. coli; PhoQ-PhoP variant library, with: 10 µM Mg2+; baseline: high Mg2+ state, higher = stronger signaling): 2.74

For quick reference, copied from above (block 3):
E10L: 0.128
R5I: -0.154
